Published values from different studies.
Each numbered part is a random draw from the data of one study; scales do not carry over between parts. Substitutions count along the parent as printed.

Study 1 — target: CCNB2, cyclin fold, Cln2 fusion (human); method: yeast growth competition, sequencing; matrix: yeast; notes: weak parent motif; reference: not given; direction: higher = stronger binding; endpoint: normalised enrichment score
Starting sequence: ANKRD17 docking peptide (human); PSVRRQLFVTVVK
V11A: 1.16
V9A: 0.629
R5K: 0.654
V12A: 0.732
R5A: 0.914
L7A: 1.15
S2A: 1.01

Study 2 — method: RNA Bind-n-Seq; form: RNA; matrix: in vitro; concentration: 100 nM; reference: input RNA pool; direction: higher = stronger binding; endpoint: bound/input enrichment
Target: RING finger protein unkempt homolog, zinc fingers 1-6, SBP tag (UNK, Homo sapiens, UniProt Q9C0B0, residues 30-357)
UniProt Q9C0B0, sequence (30-357, looked up): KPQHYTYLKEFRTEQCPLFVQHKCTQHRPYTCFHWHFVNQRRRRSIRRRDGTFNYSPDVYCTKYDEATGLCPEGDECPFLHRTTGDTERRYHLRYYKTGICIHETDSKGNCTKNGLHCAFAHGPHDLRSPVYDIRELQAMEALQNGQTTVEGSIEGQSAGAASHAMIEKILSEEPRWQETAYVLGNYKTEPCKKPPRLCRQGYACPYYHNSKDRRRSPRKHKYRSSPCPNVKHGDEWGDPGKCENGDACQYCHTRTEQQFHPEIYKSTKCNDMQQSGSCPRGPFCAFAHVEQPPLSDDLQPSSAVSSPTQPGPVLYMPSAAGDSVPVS
Notes: RNA with constant flanks, vertebrate orthologous sites, ends assumed
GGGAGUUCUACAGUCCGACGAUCAGCUCUAGUUCUUAACAACAGACACUCCUAAGAUUUUAGAAAAGAGUUUACAACAUGACCUAGUUUACAAAAAGUCUUGUGCUGAAUACUUUUUAAAGUAUUUUUGAAUACCAUCAAAACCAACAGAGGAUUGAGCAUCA: 0.798 ratio
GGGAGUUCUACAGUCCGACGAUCCUCUCUUAGUGAUAGUAUUCCAUCUGUAGCAGAUUCUCACUCGAGUCAUUUUUCUGAGUUUAGCUGCUCAGAUAUGGAAAGUAUGAAAACUUCCUGCAGCCAUGGUUCCAGCGACUAUCACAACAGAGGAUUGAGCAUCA: 0.464 ratio
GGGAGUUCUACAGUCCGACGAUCCAUUGUGUACAGAGGGGAGAUAUUAAAUAGUAUUUGUCUUCCUUUACCUUUUUUUUUUUGUCCCCUACUUUUUAAAAUUUCAAACUUUACUGCUCUUUGAAAUGAUAAUUCCAGUUUUCACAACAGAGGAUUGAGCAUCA: 0.92 ratio
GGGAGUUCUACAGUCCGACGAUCGUGUUGGUGCAGAGUGCUCUGUACCAGUGCUCAUCAUCCCUUCUUCAUAUCAGUUGUCCCUAGUUAUAGGAAUUUAAUAUUUUUAAAAGUUUUACAUUGCUGUAUAUUCAAAGAUUUGUUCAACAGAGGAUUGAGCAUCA: 0.855 ratio
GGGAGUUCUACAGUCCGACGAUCUGAGGGAGAGAUUCCUGUGAUUUUUAAUAUUUUGUUUGUUCUUUUUAAGAUACUCCAGUAUGCCAUUUUUAAUGGGACUGGUGUAUUAACAGUUCUCUCCUAAGUCUUCAUAAAGAAUCACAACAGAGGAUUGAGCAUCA: 0.294 ratio
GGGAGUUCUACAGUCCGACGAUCCCCUCUGAACCCCAUAUCUUCUGUUUCAUAAUGCAGAAGUAUUCUUUUCAAUUAUAUUGUUAGUGGACUUGUUUUAAUUUUAGAGAAACUUUGAGUACAGAUACUGUGAGCUUACAUGGACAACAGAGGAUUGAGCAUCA: 1.85 ratio
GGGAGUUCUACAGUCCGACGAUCCAUUGUACCCUGCUGUAUAAUAAACAAUCUUAGACAUUUAUCAACUGUUGAUACAAAUGUUAGUCCCUAACCACUUUUUAUAUGUUUUAAAUUUUUGAAAUUCAAGUGUACCUGCCAUAACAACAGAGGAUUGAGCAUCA: 2.07 ratio

Study 3 — target: JUNB, bZIP domain (human); method: DHFR protein complementation; matrix: yeast; reference: wild-type JUN-FOS pair; direction: higher = stronger binding; endpoint: binding fitness
Notes: single substitutions, most at no-binding floor
Starting sequence: JUN, bZIP domain (human); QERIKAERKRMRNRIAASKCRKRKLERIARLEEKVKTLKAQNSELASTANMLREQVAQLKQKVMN; partner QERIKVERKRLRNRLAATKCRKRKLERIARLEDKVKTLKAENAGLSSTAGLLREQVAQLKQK
L38C: -1.48 natural log
T48P: -1.54 natural log
L38G: -1.5 natural log
T48Q: -0.922 natural log
K39Q: -0.895 natural log
L31K: -1.52 natural log
R30G: -1.26 natural log
Q41L: -1.2 natural log
T48C: -1.25 natural log
E32H: -1.33 natural log
A29K: -1.11 natural log
R53M: -1.39 natural log
K34G: -1.39 natural log
S43L: -0.972 natural log
Q55M: -1.2 natural log
L31Y: -1.41 natural log

Study 4 — method: DHFR PCA, deep sequencing; matrix: yeast; together with: (+)-ABA 17 µM; reference: wild-type fitted maximum; direction: higher = stronger binding; endpoint: relative binding score
Target: ABI1, truncated, D143A, DHFR fusion (Arabidopsis thaliana)
Notes: methotrexate growth selection, single substitutions
Starting sequence: PYL1, truncated, DHFR fusion (Arabidopsis thaliana); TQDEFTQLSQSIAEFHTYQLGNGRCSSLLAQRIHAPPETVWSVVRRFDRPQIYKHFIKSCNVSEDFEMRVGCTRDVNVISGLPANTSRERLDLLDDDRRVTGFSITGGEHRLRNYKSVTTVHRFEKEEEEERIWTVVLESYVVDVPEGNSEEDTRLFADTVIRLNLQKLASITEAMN
E128H: 89.6%
L82K: -15.1%
L138I: 63.3%
S63R: 83%
V62A: 32.1%
E109F: 27.8%
K116Y: 13.7%
Q19D: 89.9%
S117D: -5.64%
F124I: 96.7%
A35M: 12.3%
Q51C: 41.5%
F56W: 70.5%
D92L: 5.97%
E125D: 85.2%
E127H: 84.7%

Study 5 — method: protein binding microarray; form: double-stranded DNA, one strand shown; matrix: in vitro; concentration: not given; reference: not given; direction: higher = stronger binding; endpoint: E-score
Target: Histone acetyltransferase KAT6A, both winged helices, GST fusion (KAT6A, Homo sapiens, UniProt Q92794, residues 1-181)
Notes: 8-mer, flanks averaged, mean of 2 arrays, mostly near background
Target sequence (chain): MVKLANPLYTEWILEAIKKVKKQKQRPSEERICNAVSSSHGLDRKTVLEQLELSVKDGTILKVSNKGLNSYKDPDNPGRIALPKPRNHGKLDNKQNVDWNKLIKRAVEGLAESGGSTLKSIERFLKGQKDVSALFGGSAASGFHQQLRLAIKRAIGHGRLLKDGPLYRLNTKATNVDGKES
CTGGACCC: -0.107
CAGATAGC: -0.0934
AAAGCGAT: 0.0886
ACCTTATA: -0.165
CGTCACAA: 0.0984
TCGACCCA: -0.202
GTTTGCTA: -0.0608
GTGTTCTA: 0.0557
ATTGACGA: 0.0589
ACGCCAAA: 0.023
AAGGTTGA: -0.0442
AGTCGCAA: -0.00124
CGGAAGAG: 0.0671
TCCGTTAA: 0.21
ACAATTTA: -0.0517
GGTCGTGA: -0.0596
CATTGATA: 0.0328
GATGAAAC: -0.131
GAGGTGCC: -0.111
CTCATCAC: -0.178
CGATCATA: 0.0802
TGGAACAA: -0.209
CTTCTTCC: -0.11
TCTGACAA: -0.0853
CGAGACCC: 0.133

Study 6 — method: RNA Bind-n-Seq; form: RNA; matrix: in vitro; concentration: 365 nM; reference: no-protein control; direction: higher = stronger binding; endpoint: RBNS enrichment (R)
Target: RNA binding protein fox-1 homolog 2, RRM domain, GST-SBP tag (RBFOX2, Homo sapiens, UniProt O43251-10, residues 100-194)
Notes: natural RNA segment, single round, ends assumed
Residues (chain): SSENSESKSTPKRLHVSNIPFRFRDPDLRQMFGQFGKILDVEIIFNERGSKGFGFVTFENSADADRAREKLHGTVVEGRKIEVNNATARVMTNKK
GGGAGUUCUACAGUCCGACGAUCACCCUGCUUCUUGAGGUCCCUGGAGCCCCAGGUGGGCUGAGGGGCAGGGAGCCGGCUGUGCCCAGUAUGCCUCCUGGACCCUCCAGUUCUGCCACAGGUCUGCCGAUGCCUGGAAUUCUCGGGUGCCAA: 0.513
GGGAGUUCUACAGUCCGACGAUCCAUGAGGACUGAUUCCUGUUCACACAACAAAUAUUCAGUGAAUGUCUACUAUGUGCCAGGUUCUGGGGAAGCAGGCAGGGUACAGUCACUUUUGGCCAAGGGUCUUGGGUUGGAAUUCUCGGGUGCCAA: 0.678
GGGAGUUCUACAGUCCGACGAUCACCACCACCCCACGUAGCUGCUCACACCAGCCUCCGGGUGCCUCCCUCUGCUUGUACAGAGCCCAUGGUCGGGACAGUGCCCUGGCCUUUGCCGGGGAGGAGGAUGCUCUUGGAAUUCUCGGGUGCCAA: 0.219
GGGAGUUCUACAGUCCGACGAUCGUGCAAUGGAUAUCUGUGAUGGGCUCUUCCGCCAGAAUGGUGGCUCUGGCUAUGUGCUGAAGCCAGAAUUCCUGAGAGAUACCCAGAGUUCAUUCAAUCCUGAGAGGCCAUGGAAUUCUCGGGUGCCAA: 0.431
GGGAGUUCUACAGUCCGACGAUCCAUAGCAAUAACAUUCCCACUGCCAGGGGUUCUUGAGCCAGCCAGGCCCUGCCAGUGGGGAAGGAGGCCAAGCAGUGCCUGCCUAUGAAAUUUCAACUUUUCCUUUCAUAUGGAAUUCUCGGGUGCCAA: 0.604
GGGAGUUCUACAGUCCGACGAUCACUUCACUGUCCAUGGGUCCUAGACAGGCCUGCAGGCAGGCAGGGUGCACACGCCUUCCUUCCCUCCCAGGCACUCCACGGAGUCAUCUUGGGUCUCCUGGGAUUCUAGGUGGAAUUCUCGGGUGCCAA: 0.187
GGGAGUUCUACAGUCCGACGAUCACUUGCAAAGUCUGUGCCGCCUAUUCUGACUCAUGCUGUCUAGGUGCCCAGUGUAUGAGAGCCACUUAAAACAACGCAGCCAAUUUGUAAGCAGUCUUCAUUCUCCCUCUUGGAAUUCUCGGGUGCCAA: 0.391
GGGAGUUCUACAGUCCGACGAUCUGACCCAUCCUGAGGCCAGAUACAUACUUUAAAAUUCAGAUAUUCACCGUAGCAGGUAGACAGAUGGAGGAUGGCUGGGGAAGGGAGUUGUGGGCUGAAGUUUAGGGGACUGGAAUUCUCGGGUGCCAA: 1.13
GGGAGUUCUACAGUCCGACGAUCAGCACAUUUAAAAUGAGAAACUAAGACCAAUUUCUGUUUUUAAGAGGAAAAAGAAUGAUUGAUGUAUCCUAAGUAUUGUUAUUUGUUGUCUUUUUUUGCUGCCUUGCUUGUGGAAUUCUCGGGUGCCAA: 4.22
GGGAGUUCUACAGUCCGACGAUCGGGUCAGCAGCACUGGGUGUCUAGAGAAAUUUGGCCUGGCCCAUUUGAAGGCAACAAGAACCAAACAGGAUCUUGUCAUCACAUCUGAAUAAAGCUCCAUGAGCUGGCUGUGGAAUUCUCGGGUGCCAA: 0.288
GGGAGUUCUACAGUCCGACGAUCGGAUGUUCGAUUCAUGUAAGUGACCUACCUGCUGAUGAUCCACAAAUAAUACUUUAGGGUGGCACUGACCGCUAUACCAGCAGCCCCAUGAGCACUCAAAGUGCCUUUCGUGGAAUUCUCGGGUGCCAA: 0.316
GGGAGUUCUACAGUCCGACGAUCGUGUACCCUAUGGUGGGAAUGUGGGGUUGCCUUUCAAAAGCCUUCAGGAUGGCAACAGAUUGGAUGUGCUAUCUCAGUGCCUGCAGGUCUCUCUGCUCGAGGCAGCAGGGUGGAAUUCUCGGGUGCCAA: 0.609
